Results from different studies.
Each line is one published result; not all experiments were run side by side. Several values in a cell are separate wells, animals, samples, runs or records. Numbers after ± are the reported error. Values after ≈ are worked out from the molar mass of the structure shown.

| SMILES | test | system | setting | how to read | quantity | value |
| --- | --- | --- | --- | --- | --- | --- |
| CCCCN1C(=O)c2cccc3c(NCCCCCCN4CCOCC4)ccc(c23)C1=O |  | dichloromethane |  |  | molar extinction coefficient | 10600 M⁻¹ cm⁻¹ |
| O=C1C2CC3CC1CC(C(=O)N1CCN(c4ccc([N+](=O)[O-])c5ncccc45)CC1)(C3)C2 |  | male ICR mice, plasma | intravenous, 1 mg/kg, 0.5 h |  | plasma concentration | 16.9 ng/mL |
| CCN(CC)c1ccc2c(c1)O[B-]1(c3ccccc3)OC(=O)C(c3ccccc3)=N[N+]1=C2C(C)C (stereo not shown) |  | toluene |  |  | molar absorption coefficient | 47000 M⁻¹ cm⁻¹ |
| CCC(C(=O)Nc1ccc(C(N)=O)c(F)c1)n1cc(OC)c(-c2cc(Cl)ccc2-n2cc(C(F)(F)F)nn2)cc1=O (stereo not shown) |  | healthy male humans | 50 mg |  | drug-related adverse events | 7.1% |
| COC1CN([C@H]2CC[C@H]([C@@]3(C)Oc4c(Cl)cc(C(=O)NCc5c(SC)cc(C)[nH]c5=O)c(C)c4O3)CC2)C1 | RNA-seq, refers to: RYR1 | human, whole blood | dose not given, 24 h | relative to: pretreatment baseline | log2 fold change | 1.16 |
| C=CC(=O)Nc1cc(Nc2nccc(-c3c[nH]c4ccccc34)n2)c(OC)cc1N(C)CCN(C)C | storage stability | human dried blood spot | 2 h, on ice, LLOQ level |  | recovery | 81.1% |
| O=C1CCC(N2Cc3cc(C(=O)O)c(F)cc3C2=O)C(=O)N1 (stereo not shown) |  | cynomolgus monkey, male | oral, 0.3 mg/kg parent drug, 3 h |  | plasma concentration | 8.4 ± 9.1 ng/mL |
| O=c1c2ccccc2[se]n1CCCCCCn1[se]c2ccccc2c1=O | shake-flask, RP-HPLC | phosphate-buffered saline | 24 h, pH 7.4, 25 °C |  | solubility | 0.8 ± 0.15 µg/mL (≈ 1.67 µM) |
| CCCCN1C(=O)c2cccc3c(NCCCCCN4CCOCC4)ccc(c23)C1=O |  | chloroform |  |  | molar extinction coefficient | 5800 M⁻¹ cm⁻¹ |
| O=C(Nc1cnccc1-c1ccc([18F])cc1)c1ccnc(NC(=O)C2CC2)c1 | ex vivo biodistribution, gamma counting | GSK-3β overexpressing transgenic mouse, late stage, cecum | intravenous, 120 min post-injection, added: tariquidar 15 mg/kg iv, at least 2 h before tracer |  | mean SUV | 1.4 |
| C=C(NC(=O)c1csc(-c2nc3c(cc2O)-c2nc(cs2)C(=O)NC(C(C)O)C(=O)NC(=C(C)OC)c2nc(cs2)C(=O)NC2c4nc(cs4)C(=O)NC(COC(=O)c4c5c6c(cccc6n4O)COC(=O)C(OC4CC(C)(O)C(N(C)C)C(C)O4)C2OC5)c2nc-3cs2)n1)C(N)=O (stereo not shown) |  | Sprague-Dawley rat, both sexes, plasma | intravenous infusion, 6 mg/kg, multiple doses, day 1 |  | half-life | 292 min |
| CCCCN1C(=O)c2cccc3c(NCCCCCCCCCCN4CCOCC4)ccc(c23)C1=O |  | chloroform |  |  | molar extinction coefficient | 14100 M⁻¹ cm⁻¹ |
| C=C[C@]1(C)C[C@@H](OC(=O)CSc2ccc(NC(=O)c3ccco3)cc2)[C@]2(C)[C@H](C)CC[C@]3(CCC(=O)[C@H]32)[C@@H](C)[C@@H]1O |  | M. gallisepticum-infected chickens, plasma | intramuscular, 40 mg/kg single dose |  | peripheral volume (V2/F) | 2.11 L/kg |
| Cc1ccc(-c2nc(N)c3c(Nc4ccc(F)cc4)n[nH]c3n2)cc1 |  | plasma | time not given, plasma protein binding |  | recovery | 77.8% |
| CNC(=O)C1CCCN(C(=O)C2CC3CCC2N3C(=O)[C@@H]2C[C@@H](O)CN2C(=O)NCc2cccc(Cl)c2F)C1 (mixture of isomers) | metabolic stability | dog, liver microsomes |  |  | microsomal CLint | 6 µL/min/mg |
| CC1(N(CC(=O)O)CC(=O)O)CN(CC(=O)O)CCN(CC(=O)O)C1 | pH-potentiometry, refers to: logK5H | 0.15 M NaClO4 | 25 °C |  | protonation constant (log) | 1 |

| SMILES | test | system | setting | how to read | quantity | value |
| --- | --- | --- | --- | --- | --- | --- |
| CC(C)[C@H](NC(=O)[C@H](Cc1c[nH]c2ccccc12)NC(=O)[C@H](CCCNC(=N)N)NC(=O)[C@H](CCCNC(=N)N)NC(=O)[C@@H](NC(=O)[C@@H](NC(=O)[C@H](CCCNC(=N)N)NC(=O)[C@@H](NC(=O)[C@@H](NC(=O)[C@H](CCCNC(=N)N)NC(=O)[C@H](CCCNC(=N)N)NC(=O)[C@@H](NC(=O)[C@H](Cc1c[nH]c2ccccc12)NC(=O)[C@H](CCCNC(=N)N)NC(=O)[C@H](CCCNC(=N)N)NC(=O)[C@@H](NC(=O)[C@H](CCCNC(=N)N)NC(=O)[C@H](CCCNC(=N)N)NC(=O)[C@@H](NC(=O)[C@H](Cc1c[nH]c2ccccc12)NC(=O)[C@H](CCCNC(=N)N)NC(=O)[C@@H](N)CCCNC(=N)N)C(C)C)C(C)C)C(C)C)C(C)C)C(C)C)C(C)C)C(C)C)C(=O)N[C@@H](CCCNC(=N)N)C(=O)N[C@@H](CCCNC(=N)N)C(=O)O |  | CD1 mouse, plasma | intravenous, 15 mg/kg, 24 h, [14C]-labelled compound |  | chloride | 98.7 mEq/L |
| CCC(CC)CNC(=N)NC(=N)NCCCCCCNC(=N)NC(=N)NCC(CC)CC | metabolic stability | dog, liver microsomes | 2 µM |  | microsomal CLint | 0.73 µL/min/mg |
| CC[C@H](C)[C@@H]1NC(=O)[C@H](Cc2ccc(O)cc2)NC(=O)CCCSC[C@@H](C(=O)N(CC(=O)N[C@@H](CC(C)C)C(=O)NCC(N)=O)Cc2ccc(F)cc2)NC(=O)[C@H](CC(N)=O)NC(=O)[C@H](CCC(N)=O)NC1=O |  | healthy human, plasma | intranasal, 50 µg every 3 h, after last dose |  | AUC(0-t) | 0.018 ng·h/mL |
| COCC1CN(C2CCN(c3cc(OC)c(Nc4ncc(Br)c(Nc5ccc6c(c5P(C)(C)=O)OCCO6)n4)cc3C)CC2)C1 |  | EGFR-mutant NSCLC patients, plasma | oral, 60 mg multiple doses, median |  | Tmax at steady state | 1.49 h |
| O=C1NC2(CC2)COc2ncc(F)cc2[C@H]2COCCN2c2ccn3ncc1c3n2 | bone marrow micronucleus test | NIH mice, female | oral, 200 mg/kg/day, 3 days |  | PCE/(PCE+NCE) ratio | 0.372 ± 0.053 |
| CC(C(=O)O)n1nc(Cn2cc3cc(OCC[18F])c(Cl)cc3n2)c2ccccc2c1=O (racemic) |  | rat, liver | 2 h |  | tracer uptake | 0.45 %ID/g |
| CN([O-])C(=O)CN1CCNCCN(CC(=O)N(C)[O-])CC1.[89Zr+4] |  | mouse, liver | intravenous, 24 h |  | tracer uptake | 0.18 %ID/g |
| CN1CCCNC(=O)c2cccc(c2)C(=O)NCCCN(C)CCCNc2cccc3c2C(=O)c2cccc(c2C3=O)NCCC1 |  | mouse, serum | dose not given |  | blood urea nitrogen | 23.8 mg/dL and 27.8 mg/dL and 22.7 mg/dL |
| OC1(C(F)(F)F)CCN(c2nc(Nc3ccnc(C(F)(F)F)c3)nc(-c3cccc(C(F)(F)F)n3)n2)C1 (stereo not shown) |  | Sprague-Dawley rat, both sexes, plasma | oral gavage, 5 mg/kg, day 1 |  | MRT(0-inf) | 24.6 ± 4.21 h |
| C/C(N)=N/C(=N\S(=O)(=O)c1ccc(C(F)(F)F)cc1)N1C[C@H](c2ccccc2)C(c2ccc(Cl)cc2)=N1 |  | beagle dog, plasma | oral, 12 mg/kg |  | bioavailability | 40% |
| Cc1ccc(OCC(=O)N(Cc2cccs2)c2ccn[nH]2)cc1 |  | dog plasma | 750 ng/mL, 6 h, 37 °C, unit not given | relative to: time zero | remaining compound | 112 |
| COc1cccc(OC)c1-c1cc(C(=O)NC2(C(=O)O)C3CC4CC(C3)CC2C4)nn1-c1ccc(C(=O)N(C)CCOCCN(C)C(=O)[C@H](CCCCNC(=O)[C@H](CC(C)C)NC(=O)C2OC2C(=O)O)NC(=O)CN2CCN(CC(=O)[O-])CCN(CC(=O)[O-])CCN(CC(=O)[O-])CC2)cc1C(C)C.[177Lu+3] (mixture of isomers) |  | mouse, HT-29 xenograft | 168 h post injection, biodistribution | relative to: tumour over brain uptake | tumour-to-brain ratio | 6.22 |
| C=CC(=O)N1CCCC(n2c(=O)c3ncccc3n(Cc3ccc(Oc4ccccc4)cc3)c2=O)C1 (stereo not shown) |  | male BALB/c mice, plasma | oral, 200 mg/kg, 1 h |  | plasma concentration | 20100 ng/mL and 23600 ng/mL |
| CCCCN1C(=O)c2cccc3c(NCCN4CCOCC4)ccc(c23)C1=O |  | MeCN |  |  | molar extinction coefficient | 5980 M⁻¹ cm⁻¹ |
| COc1ccc2c(c1)CCn1c[n+]3c(c1-2)-c1ccc(OC)cc1CC3 |  | female NSG mice, blood | 6 mg/kg, day 14, 5 days per week |  | haemoglobin | 13.4 ± 0.59 g/dL |

A few entries again:
| SMILES | test | system | setting | how to read | quantity | value |
| --- | --- | --- | --- | --- | --- | --- |
| Cc1ccc(-c2nc(N)c3c(Nc4ccc(F)cc4)n[nH]c3n2)cc1 |  | plasma | time not given, plasma protein binding |  | recovery | 77.8% |
| CNC(=O)C1CCCN(C(=O)C2CC3CCC2N3C(=O)[C@@H]2C[C@@H](O)CN2C(=O)NCc2cccc(Cl)c2F)C1 (mixture of isomers) | metabolic stability | dog, liver microsomes |  |  | microsomal CLint | 6 µL/min/mg |
| CC1(N(CC(=O)O)CC(=O)O)CN(CC(=O)O)CCN(CC(=O)O)C1 | pH-potentiometry, refers to: logK5H | 0.15 M NaClO4 | 25 °C |  | protonation constant (log) | 1 |
| CC(C)[C@H](NC(=O)[C@H](Cc1c[nH]c2ccccc12)NC(=O)[C@H](CCCNC(=N)N)NC(=O)[C@H](CCCNC(=N)N)NC(=O)[C@@H](NC(=O)[C@@H](NC(=O)[C@H](CCCNC(=N)N)NC(=O)[C@@H](NC(=O)[C@@H](NC(=O)[C@H](CCCNC(=N)N)NC(=O)[C@H](CCCNC(=N)N)NC(=O)[C@@H](NC(=O)[C@H](Cc1c[nH]c2ccccc12)NC(=O)[C@H](CCCNC(=N)N)NC(=O)[C@H](CCCNC(=N)N)NC(=O)[C@@H](NC(=O)[C@H](CCCNC(=N)N)NC(=O)[C@H](CCCNC(=N)N)NC(=O)[C@@H](NC(=O)[C@H](Cc1c[nH]c2ccccc12)NC(=O)[C@H](CCCNC(=N)N)NC(=O)[C@@H](N)CCCNC(=N)N)C(C)C)C(C)C)C(C)C)C(C)C)C(C)C)C(C)C)C(C)C)C(=O)N[C@@H](CCCNC(=N)N)C(=O)N[C@@H](CCCNC(=N)N)C(=O)O |  | CD1 mouse, plasma | intravenous, 15 mg/kg, 24 h, [14C]-labelled compound |  | chloride | 98.7 mEq/L |
